Measurements pooled from the literature.
± gives the spread as reported.
UniProt P23467, sequence (whole entry, looked up): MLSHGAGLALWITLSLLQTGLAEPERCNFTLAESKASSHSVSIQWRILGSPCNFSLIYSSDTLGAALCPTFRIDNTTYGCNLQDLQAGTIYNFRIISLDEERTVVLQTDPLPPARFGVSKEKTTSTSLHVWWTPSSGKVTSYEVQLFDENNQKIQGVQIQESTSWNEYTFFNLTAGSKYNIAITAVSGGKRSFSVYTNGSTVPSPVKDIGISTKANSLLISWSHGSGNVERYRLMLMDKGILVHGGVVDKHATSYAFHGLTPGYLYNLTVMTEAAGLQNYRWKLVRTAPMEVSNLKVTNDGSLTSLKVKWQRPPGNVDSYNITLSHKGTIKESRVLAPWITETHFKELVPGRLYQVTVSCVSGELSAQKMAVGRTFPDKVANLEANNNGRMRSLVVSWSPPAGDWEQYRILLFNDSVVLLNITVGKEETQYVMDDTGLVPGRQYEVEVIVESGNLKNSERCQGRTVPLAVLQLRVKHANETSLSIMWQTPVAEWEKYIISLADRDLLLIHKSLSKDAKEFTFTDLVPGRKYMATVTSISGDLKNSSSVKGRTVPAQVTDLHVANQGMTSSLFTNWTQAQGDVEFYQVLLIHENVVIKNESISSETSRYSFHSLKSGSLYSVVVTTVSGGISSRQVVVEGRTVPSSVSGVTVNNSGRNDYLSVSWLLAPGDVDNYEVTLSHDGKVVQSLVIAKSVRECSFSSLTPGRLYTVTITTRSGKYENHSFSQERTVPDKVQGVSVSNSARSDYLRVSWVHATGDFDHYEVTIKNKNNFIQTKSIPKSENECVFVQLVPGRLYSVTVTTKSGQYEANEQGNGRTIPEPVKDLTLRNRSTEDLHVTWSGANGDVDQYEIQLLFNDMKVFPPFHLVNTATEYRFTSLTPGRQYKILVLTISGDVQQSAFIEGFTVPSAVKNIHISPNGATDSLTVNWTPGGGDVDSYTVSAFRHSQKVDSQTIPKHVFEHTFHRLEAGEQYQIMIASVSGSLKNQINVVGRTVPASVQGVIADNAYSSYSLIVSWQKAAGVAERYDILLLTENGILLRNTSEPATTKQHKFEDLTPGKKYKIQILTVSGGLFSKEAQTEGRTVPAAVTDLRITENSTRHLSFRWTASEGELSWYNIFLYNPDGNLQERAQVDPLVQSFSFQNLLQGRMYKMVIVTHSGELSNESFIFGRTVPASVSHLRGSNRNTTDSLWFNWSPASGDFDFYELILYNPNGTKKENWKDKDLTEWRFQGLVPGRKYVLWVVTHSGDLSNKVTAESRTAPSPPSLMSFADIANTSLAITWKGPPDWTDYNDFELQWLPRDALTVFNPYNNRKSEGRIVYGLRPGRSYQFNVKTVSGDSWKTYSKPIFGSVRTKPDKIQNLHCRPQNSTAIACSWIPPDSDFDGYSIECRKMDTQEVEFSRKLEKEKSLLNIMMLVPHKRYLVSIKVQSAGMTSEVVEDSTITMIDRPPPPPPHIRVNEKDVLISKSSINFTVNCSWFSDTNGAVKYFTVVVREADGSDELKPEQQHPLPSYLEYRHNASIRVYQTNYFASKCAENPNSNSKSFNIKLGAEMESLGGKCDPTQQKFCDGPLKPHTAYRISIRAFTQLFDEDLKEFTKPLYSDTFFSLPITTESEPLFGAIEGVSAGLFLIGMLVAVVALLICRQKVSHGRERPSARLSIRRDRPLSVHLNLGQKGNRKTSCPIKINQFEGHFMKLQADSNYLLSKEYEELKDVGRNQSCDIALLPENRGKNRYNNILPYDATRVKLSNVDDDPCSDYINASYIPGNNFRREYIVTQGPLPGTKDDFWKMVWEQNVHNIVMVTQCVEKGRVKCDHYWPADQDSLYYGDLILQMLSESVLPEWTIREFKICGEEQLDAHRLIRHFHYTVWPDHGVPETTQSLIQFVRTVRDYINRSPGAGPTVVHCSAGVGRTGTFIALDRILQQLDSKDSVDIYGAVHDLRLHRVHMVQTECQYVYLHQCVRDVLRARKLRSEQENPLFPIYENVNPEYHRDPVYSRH

`Nc1ccc([N+](=O)[O-])cc1` gave an AC50 of 107 µM (MDA-kb2; cytotoxicity).
For `CC(C)C[C@H](NC(=O)CN)C(=O)N[C@@H](CCCCN)C(=O)N[C@@H](CCCCN)C(=O)N[C@@H](CC(C)C)C(=O)N[C@@H](CC(C)C)C(=O)N[C@@H](CC(C)C)C(=O)N[C@@H](CC(C)C)C(=O)N[C@@H](CC(C)C)C(=O)N[C@@H](CCCCN)C(=O)N[C@@H](CCCCN)C(=O)N[C@@H](CC(C)C)C(=O)NCC(=O)NCC(=O)NCC(=O)N[C@@H](Cc1ccccc1)C(=O)N[C@@H](CO)C(=O)N[C@@H](CC(C)C)C(=O)N[C@@H](C)C(=O)N1CCC[C@H]1C(=O)N[C@@H](Cc1ccc(O)cc1)C(=O)N[C@@H](C)C(=O)N1CCC[C@H]1C(=O)N[C@@H](C)C(=O)N1CCC[C@H]1C(=O)N[C@H](C(=O)N[C@@H](CC(N)=O)C(=O)O)C(C)C`, “lowest hemolytic concentration” read over 256 µg/mL (human red blood cells; 1 h, 37 °C, 10% hemolysis).
`CC(C)CN(C[C@@H](O)[C@H](Cc1ccccc1)NC(=O)O[C@H]1CO[C@H]2OCC[C@H]21)S(=O)(=O)c1ccc2nc(NC3CCN(C4CCCC4)CC3)sc2c1` has a CC50 of 14.3 µM (African green monkey cells; 5 days).
With `CC(=O)N[C@@H](CCCCN)C(=O)N[C@@H](CCCCN)C(=O)N[C@@H](CC(C)C)C(=O)N[C@@H](CC(C)C)C(=O)N[C@@H](CCCCN)C(=O)N[C@@H](CC(C)C)C(=O)N[C@@H](CC(C)C)C(=O)N[C@@H](CCCCN)C(=O)N[C@@H](CCCCN)C(=O)N1CCC[C@H]1C(=O)N[C@@H](CC(C)C)C(=O)N[C@@H](CCCCN)C(=O)N[C@@H](CC(C)C)C(=O)N[C@@H](C)C(=O)N[C@@H](CCCCN)C(N)=O` the MHC10 was over 160 µM (human red blood cells; haemolysis; 6 h, 37 °C, 5% haematocrit in PBS).
The CC50 of `NC(=O)C1CN(CCCCC(c2ccc(F)cc2)c2ccc(F)cc2)CCN1CC(=O)Nc1c(Cl)cc(N)cc1Cl` (stereo not shown) is reported as 9.66 µM (African green monkey cells; 5 days).
`O=c1ccc2ccccc2o1` — result for “point of departure”: 131 µM (HepaRG 3D spheroids; cellular ATP; 168 h, high-content imaging).
`O=C(NC1COC1)c1cc(-c2ccoc2)ccc1OCCc1cccc(F)c1` gave a CC50 of 41 ± 2 µM (HepG2; 3 (unit not given), human).
With `C[C@@H](O)[C@@H](CO)NC(=O)[C@@H](CCCNC(=N)N)NC(=O)[C@@H]1CCCN1C(=O)[C@@H]1CSSC[C@H](NC(=O)[C@H](Cc2ccccc2)NC(=O)CN2CCN(CC(=O)O)CCN(CC(=O)O)CCN(CC(=O)O)CC2)C(=O)N[C@@H](Cc2ccc(O)cc2)C(=O)N[C@@H](Cc2ccccc2)C(=O)N[C@@H](CCC(N)=O)C(=O)N[C@@H](CC(N)=O)C(=O)N1` [gallium-68 labelled] the tissue uptake was 0.15 %ID/g (healthy Wistar rat, pancreas; intravenous, 8 MBq, 60 min, individual animals).
The tissue uptake of `CC[C@H](C)[C@H](NC(=O)[C@H](Cc1ccccc1)NC(=O)[C@H](CCC(=O)O)NC(=O)[C@H](CCCNC(=N)N)NC(=O)[C@H](C)NC(=O)[C@H](C)NC(=O)[C@H](CCC(N)=O)NC(=O)[C@H](CCC(=O)O)NC(=O)[C@H](CCC(=O)O)NC(=O)[C@H](CC(C)C)NC(=O)[C@H](Cc1ccc(O)cc1)NC(=O)[C@H](CO)NC(=O)[C@H](CO)NC(=O)[C@@H](NC(=O)[C@H](CC(=O)O)NC(=O)[C@H](CO)NC(=O)[C@@H](NC(=O)[C@H](Cc1ccccc1)NC(=O)[C@@H](NC(=O)CNC(=O)[C@H](CCC(=O)O)NC(=O)[C@H](C)NC(=O)CCc1c[nH]cn1)[C@@H](C)O)[C@@H](C)O)C(C)C)C(=O)N[C@@H](C)C(=O)N[C@@H](Cc1c[nH]c2ccccc12)C(=O)N[C@@H](CC(C)C)C(=O)N[C@H](C(=O)N[C@@H](CCCNC(=N)N)C(=O)NCC(=O)N[C@@H](CCCNC(=N)N)C(=O)N[C@@H](CCCCNC(=O)COCCOCCNC(=O)COCCOCCNC(=O)CC[C@H](NC(=O)CCCCCCCCCCCCCCCCC(=O)O)C(=O)O)C(=O)NCC(=O)NCC(=O)N[C@@H](CO)C(=O)N[C@@H](CCCCNc1c(NCCCCCN(O)C(=O)CCC(=O)NCCCCCN(O)C(=O)CCC(=O)NCCCCCN(O)C(C)=O)c(=O)c1=O)C(=O)O)C(C)C` [zirconium-89 labelled] is reported as 0.2 %ID/g (rat, pancreas; iv, 3 nmol/kg, 24 h, ex vivo).
For `COc1cc(Nc2ncc(F)c(Nc3ccc4c(n3)NC(=O)C(C)(C)O4)n2)cc(OC)c1OC`, the IC50 was over 10 µM (Receptor-type tyrosine-protein phosphatase beta (Homo sapiens, UniProt P23467); PTPB).
For `CNC(=O)[C@@H](c1ccccc1)N1CCc2cc(OC)c(OC)cc2[C@@H]1CCc1ccc(C(F)(F)F)cc1`, the CC50 was 21.4 µM (African green monkey cells; 5 days).
`C[C@]1(CO)Cc2ncn(-c3ccc(C#N)c(Cl)c3)c2C(=O)O1` — result for “subjects with any TEAE”: 16.7% (human, Chinese; 20 mg single dose).
`Cc1cccc(C)c1N(Cn1cccn1)C(=O)CCl` gave a toxic ratio of 0.29 (MCF7 AREc32; 24 h, nominal concentration; reference: baseline IC10 over IC10).
For `CO[C@H]1C[C@@H]2CC[C@@H](C)[C@@](O)(O2)C(=O)C(=O)N2CCCC[C@H]2C(=O)O[C@H]([C@H](C)C[C@@H]2CC[C@@H](OC(=O)NCCOCCOCCOCCOCCOCCOCCOCCOCCC(=O)N3CCc4cc(Cn5nc(-c6ccc7oc(N)nc7c6)c6c(N)ncnc65)ccc4C3)[C@H](OC)C2)C[C@@H](O)[C@H](C)/C=C(\C)[C@@H](O)[C@@H](OC)C(=O)[C@H](C)C[C@H](C)/C=C/C=C/C=C/1C`, “Pneumonia AE leading to dose reduction” read 0% (patients with advanced solid tumours; intravenous, 1.6 mg/3 mg weekly, any grade).
With `O=S(=O)(c1ccc(O)cc1)c1ccc(O)cc1` the necrotic cells was 36.5 ± 7.95% (HepG2 spheroids; annexin V-FITC/PI flow cytometry; 1 µM, 96 h).
Under “log2 fold change”, `CC[C@H](C)[C@@H]1NC(=O)[C@@H]2CCCN2C(=O)[C@H](CC(C)C)NC(=O)[C@H](CC(C)C)NC(=O)CNC(=O)[C@@H](NC(=O)[C@@H](NC(=O)[C@H](CC(=O)O)NC(=O)CNC(=O)[C@@H](NC(=O)[C@H](C)NC(=O)CNC(=O)[C@H](CCCCN)NC(=O)[C@H](CC(C)C)NC(=O)[C@H](CC(C)C)NC(=O)[C@H](CCCCN)NC(=O)CNC(=O)[C@@H](NC(=O)[C@@H](N)CC(C)C)C(C)C)C(C)C)C(C)C)CSSC[C@@H](C(=O)O)NC1=O` is recorded as -2.28 (RNA-seq, measured: Psd4; mouse, traumatic brain injury model, frontal cortex and hippocampus; dose not given; reference: TBI alone).
For `CC(C)C[C@H](NC(=O)CNC(=O)CNC(=O)CNC(=O)[C@H](Cc1ccc(O)cc1)NC(=O)[C@H](CC(C)C)NC(=O)[C@@H](NC(=O)CNC(=O)[C@H](Cc1ccc(O)cc1)NC(=O)[C@H](CCCCN)NC(=O)[C@H](CC(N)=O)NC(=O)[C@@H](NC(=O)[C@H](CCCCN)NC(=O)[C@H](Cc1c[nH]c2ccccc12)NC(=O)CN)[C@@H](C)O)[C@@H](C)O)C(=O)N[C@@H](CCCCN)C(=O)N[C@@H](CCCCN)C(=O)N[C@@H](CC(C)C)C(=O)N[C@@H](CC(C)C)C(=O)N[C@@H](CC(C)C)C(=O)N[C@@H](CC(C)C)C(=O)N[C@@H](CC(C)C)C(=O)N[C@@H](CCCCN)C(=O)N[C@@H](CCCCN)C(=O)N[C@@H](CC(C)C)C(=O)NCC(=O)O`, “lowest hemolytic concentration” read 128 µg/mL (human red blood cells; 1 h, 37 °C, 10% hemolysis).
`C=CC(=O)Nc1cc(Nc2nccc(-c3cn(C)c4ccccc34)n2)c(OC)cc1N(C)CCN(C)C` has a CC50 of 3.09 µM (African green monkey cells; 5 days).
`CC(c1ccccc1)(c1ccc(O)cc1)c1ccc(O)cc1`: “late apoptotic cells” 9.91 ± 2.97% (HepG2 spheroids, dissociated; annexin V-FITC/PI flow cytometry; 1 µM, 24 h).
`CCNCc1nc2c(N)nc3ccccc3c2n1CC(C)(C)O` gave a viability of 87.7% (HFF-1; 10 µg/mL, 48 h).
`COc1ccc(CCN2CCC(Nc3nc4ccccc4n3Cc3ccc(F)cc3)CC2)cc1` gave a CC50 of 7.5 µM (African green monkey cells; 5 days).
For `COc1cc2c(Oc3ccc4[nH]c(C)cc4c3F)ccnc2cc1OCC1(N)CC1`, “grade 1 or 2 weight loss” read 25% (paediatric recurrent refractory sarcoma; 8 mg).

For quick reference, copied from above:
For `COc1cc2c(Oc3ccc4[nH]c(C)cc4c3F)ccnc2cc1OCC1(N)CC1`, “grade 1 or 2 weight loss” read 25% (paediatric recurrent refractory sarcoma; 8 mg).
For `CC(C)C[C@H](NC(=O)CNC(=O)CNC(=O)CNC(=O)[C@H](Cc1ccc(O)cc1)NC(=O)[C@H](CC(C)C)NC(=O)[C@@H](NC(=O)CNC(=O)[C@H](Cc1ccc(O)cc1)NC(=O)[C@H](CCCCN)NC(=O)[C@H](CC(N)=O)NC(=O)[C@@H](NC(=O)[C@H](CCCCN)NC(=O)[C@H](Cc1c[nH]c2ccccc12)NC(=O)CN)[C@@H](C)O)[C@@H](C)O)C(=O)N[C@@H](CCCCN)C(=O)N[C@@H](CCCCN)C(=O)N[C@@H](CC(C)C)C(=O)N[C@@H](CC(C)C)C(=O)N[C@@H](CC(C)C)C(=O)N[C@@H](CC(C)C)C(=O)N[C@@H](CC(C)C)C(=O)N[C@@H](CCCCN)C(=O)N[C@@H](CCCCN)C(=O)N[C@@H](CC(C)C)C(=O)NCC(=O)O`, “lowest hemolytic concentration” read 128 µg/mL (human red blood cells; 1 h, 37 °C, 10% hemolysis).
